Measured values pooled from the literature.
Numbered parts are unrelated; each lists some results of a single study.

Block 1 — method: RNA Bind-n-Seq; molecule type: RNA; matrix: in vitro; tested at: 15 pmol; notes: 4-mer, random 30-nt RNA, single round; with: DMSO vehicle, 2 mM AMP-PNP; reference: input library; direction: higher = stronger binding
Target: Eukaryotic initiation factor 4A-I (EIF4A1, Homo sapiens, UniProt P60842, residues 1-406, full length assumed)
Sequence of UniProt P60842 (whole entry, looked up): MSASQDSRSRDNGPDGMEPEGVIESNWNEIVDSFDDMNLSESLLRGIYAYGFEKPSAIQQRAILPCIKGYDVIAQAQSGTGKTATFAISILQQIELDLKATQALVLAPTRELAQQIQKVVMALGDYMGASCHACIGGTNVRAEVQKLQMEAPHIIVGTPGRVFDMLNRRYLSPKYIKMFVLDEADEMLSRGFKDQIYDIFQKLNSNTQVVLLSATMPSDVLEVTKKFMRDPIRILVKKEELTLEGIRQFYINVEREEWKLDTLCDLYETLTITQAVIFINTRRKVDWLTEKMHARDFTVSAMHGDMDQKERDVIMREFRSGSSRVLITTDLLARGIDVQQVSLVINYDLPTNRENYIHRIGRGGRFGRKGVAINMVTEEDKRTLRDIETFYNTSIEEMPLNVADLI
Oligonucleotide	4-mer enrichment [fold]
GUGG	0.871
UCGU	0.716
UUAG	0.784
GAAU	0.948
UCUU	0.876
AUCA	1.21
CUGU	0.737
GCCC	1.21
CGCA	1.01
CUCU	1.11
CGAG	0.875
ACAC	1.13
AGUC	0.953
CCUC	2.08
ACGG	1.31
ACUA	0.881
UGGG	0.837
GAGG	1.35
UGAC	1.51
UAAA	1.17
CAAC	1.5

Block 2 — method: RNAcompete; molecule type: RNA; matrix: in vitro; tested at: 20 nM; notes: 7-mer, probes averaged, single round; reference: mean of 7-mers; direction: higher = stronger binding
Target: PABPC1L2, full length, GST fusion (mouse, UniProt A0ABA7IW68)
Target sequence (chain): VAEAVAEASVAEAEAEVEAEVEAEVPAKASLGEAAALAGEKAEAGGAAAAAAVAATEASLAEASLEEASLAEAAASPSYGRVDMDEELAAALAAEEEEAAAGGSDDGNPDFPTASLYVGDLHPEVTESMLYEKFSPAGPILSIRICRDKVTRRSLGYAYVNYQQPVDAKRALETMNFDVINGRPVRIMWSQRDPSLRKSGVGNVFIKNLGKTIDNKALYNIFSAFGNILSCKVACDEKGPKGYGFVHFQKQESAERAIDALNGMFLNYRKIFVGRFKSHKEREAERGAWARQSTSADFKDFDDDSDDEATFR
Oligonucleotide	7-mer Z-score
CUUUUGG	-0.05
UCUGUAA	-0.00289
UUGAUCG	-0.17
GGCACGC	-0.0156
UUCACAG	-0.293
AUCGUGA	-0.244
CUUUUAA	0.311
CUCAGGC	-0.217
CCAAAUC	-0.0736
UGAGUAU	-0.166
UUACGCC	-0.315
UUAAGAA	0.233
CAAUUAG	0.0334
GAUGUGA	-0.11
AUUAGCU	-0.193
UUAUGAU	-0.0482
ACGCUUU	-0.255
GACCGUA	-0.266
UACUCGG	-0.0989
UACCUCG	-0.443
GCCAAGG	-0.0554
AAAUUUU	0.776
CUGUCUG	-0.267

Block 3 — method: protein binding microarray; molecule type: double-stranded DNA, one strand shown; matrix: in vitro; tested at: not given; reference: not given; direction: higher = stronger binding
Target: Histone acetyltransferase KAT6A, both winged helices, GST fusion (KAT6A, Homo sapiens, UniProt Q92794, residues 1-181)
Notes: 8-mer, flanks averaged, mean of 2 arrays, mostly near background
Target sequence (chain): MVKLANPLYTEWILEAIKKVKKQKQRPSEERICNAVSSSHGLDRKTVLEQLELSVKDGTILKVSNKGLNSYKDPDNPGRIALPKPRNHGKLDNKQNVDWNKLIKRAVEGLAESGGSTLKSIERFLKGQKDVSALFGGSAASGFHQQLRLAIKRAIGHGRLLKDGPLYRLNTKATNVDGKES
Oligonucleotide	E-score
ATCTCCGA	0.0922
CTTCAATC	0.0156
GCCGTCTA	0.229
CTAGGAAA	-0.161
AATGCCGG	0.268
TGCTGACA	-0.165
CTTACTGC	0.0535
ACTGTACA	-0.0782
CGAATCTC	0.0982
ATGAATGA	-0.0746
AGGGCTGG	-0.198
ACAGGTCT	-0.158
CTTTCTAC	-0.101
CGATCCAC	-0.179
AACGAGCG	0.179
GAACGGCC	0.181
GTGCTAAA	-0.0634
ATGAACTG	0.049
CTCCTGTA	-0.0546
ATCGCAAT	0.00418
CAGGTGTA	-0.0971
ACTGTACT	-0.22
GTTGCTGA	-0.0307
AGAAGGCC	0.0348
CGTGCCGA	0.205

Block 4 — method: RNA Bind-n-Seq; molecule type: RNA; matrix: in vitro; tested at: 365 nM; reference: no-protein control; direction: higher = stronger binding
Target: RNA binding protein fox-1 homolog 2, RRM domain, GST-SBP tag (RBFOX2, Homo sapiens, UniProt O43251-10, residues 100-194)
Notes: natural RNA segment, single round, ends assumed
Shared flanks, not repeated: GGGAGUUCUACAGUCCGACGAUC … UGGAAUUCUCGGGUGCCAA
Construct (chain): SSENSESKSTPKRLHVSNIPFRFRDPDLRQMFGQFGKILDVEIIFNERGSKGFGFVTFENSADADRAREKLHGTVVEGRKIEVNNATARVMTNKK
Oligonucleotide	RBNS enrichment (R)
CACAGAUUGAACUGCUGAACUAGUUGGAGGUCUAGAUGAGGUGCUUUACGCAUCAGCUGCCUUAGACAGCUUCUAGAAAGGAGCGAGCGCUACUUCUUAAGUACUUAAGU	0.223
GUUAAAGACCAGACGUUCUAGAAAAGACCCCUCCUCUCAUGAGCUCCCCCAUCCCUGCUACAGAACACAGCACCCAUGGCGCCUGCAGUGGACUGGCCCCUUAAUUCCCA	0.604
CCUUAUGAAACUCCAGCUAUGUAAUAAAAAACUAUACUCUGUGUUCUGUUAAUGCCUCUGAGUGUCCUACCUCCUUGGAGAUGAGAUAGGGAAGGAGCAGGGAUGAGACU	1.01
UCGCCCCUCCAGUAAGCUGUAGAGUUUCUAUGUGCCUACAUACAUUUCUGUGACAAGUAUUUGUCGUAAAUUAAUUUUAAUUGUGUAUCAAGUGAAAAAGAAACACUGAG	0.585
UGGUCACCCUGGCAAACUGCACCUGACAUUGAGGUCCCUUUUCACCAAAGAUGCACAAGGUGUCCAUGCCGAGCCGACAUCAUUCAGGCCAAGGGCAGAGGAUGUAAUGA	0.427
AGAUAAGGGAGGCCCCUCCCCCCUCCCGGAGGCCAGGACCCCGUGGGGCGGGGGAGAGGACGUCUCUGCGGGCCCCCUUCACCCCUUUUCUGUCUGCACCCCUUGUUCCC	0.379
CCCAGGCUGGAGUGCAGUGGCGUAGUCUCGGCUCACUGCAAGCUCCGCCUCCCGGGUUCACGCCGUUCUCCUGCCUCAGCCUCUCUGAGAAGCUGGGACUACAGGCGCCC	0.136
GCCUGUUCUGCUCUUAUUUAACAUGAAGCACUGUGUACUUGUUUCUUCUCUCCAAAGUAAAAUUAGAUUAUUUAUAACUUCGAUCGCCUCGGCUAGGUUUCCAAGUCACU	0.961
UCAUCUUCUGCCAAGCAUUCAGGCAGAGCAGCUGUUAACUGUGAUUCAAAGUCAGAAAAACAUCAAGAACUUCUUUGAUGCAUAGGGUGUAUCAGCACUCAGCUCCCACA	0.629
GCUUGGAGAGCUGGGCUCUCGCAUGUCAUGUUUAGCCCACUGAGAAUAUACCCUCAGGUGACUCCCUCCGAUCCUGAAAGGGAAAGCAGCUGUCACCUGACUUCUGGCGG	6.44
GUAAGGCAGAGCUGGGGUGCAGGUAGAAGUUGGGGACAGAGGAAGAUCUGGAAGUAAGCAAAUGUGAAAAUUCCUUUUGGAACCUGACAGAUGCAGCUAAACUAAACAGU	0.662
UUUUCAGUUGUUUGUUUUUGCUUGUUAUAUUAAGCAGAAAUCCUGCAAUGAAAGGUACUAUAUUUGCUAGACUCUAGACAAGAUAUUGUACAUAAAAGAAUUUUUUUGUC	0.399

Block 5 — method: universal PBM; molecule type: double-stranded DNA, one strand shown; matrix: in vitro; tested at: not given; direction: higher = stronger binding
Target: Sal-like protein 4, full length isoform B (SALL4, Homo sapiens, UniProt Q9UJQ4-2, residues 1-616)
Notes: 8-mer, flanks averaged, mean of replicates
Oligonucleotide	E-score
GAAACACA	0.153
AGAGAGTG	-0.193
AGTACGGA	-0.0153
AGTTACCG	0.00427
CACCAGAA	-0.0009
ACTCCAAT	-0.012
CCGGTTAC	-0.296
CACTTAGC	-0.161
CCTCCTAA	-0.0211
GAACGTAA	0.111
CATCCAGA	-0.0926
CTATCTCA	0.0312
CTTACCGC	-0.257
CGAGGACG	-0.248
TAACTTAA	0.328
TGTGCCAA	0.0801
ACACGTCT	0.0425
AGTGTATG	0.123
GAGCCTCA	-0.223
TAGAGCGA	-0.121
AATTGTGA	0.278
CAGGTCAG	-0.141
AAGTTTTC	0.219
TGGGATAA	0.12
GGTTGTTA	0.102

Repeated from above (block 2):
Oligonucleotide	7-mer Z-score
UUGAUCG	-0.17
GGCACGC	-0.0156
UUCACAG	-0.293
AUCGUGA	-0.244
CUUUUAA	0.311
CUCAGGC	-0.217
CCAAAUC	-0.0736
UGAGUAU	-0.166
UUACGCC	-0.315
UUAAGAA	0.233
CAAUUAG	0.0334
GAUGUGA	-0.11
AUUAGCU	-0.193
UUAUGAU	-0.0482
ACGCUUU	-0.255
GACCGUA	-0.266
UACUCGG	-0.0989
